Measurements collected from several papers.
Numbered parts are unrelated; each lists some results of a single study.

Block 1
Target: Phosphate system positive regulatory protein PHO4, full length, GST-tagged (PHO4, Saccharomyces cerevisiae, UniProt P07270, residues 1-312)
Method: competition protein-binding microarray
Form: double-stranded DNA, one strand shown
Matrix: in vitro
Concentration: 2 µM
Setting: whole 60-bp probe, lowest competitor level
Together with: Cbf1 competitor, 0.05 µM
Reading: higher = stronger binding
Quantity: fluorescence intensity
Target sequence (chain): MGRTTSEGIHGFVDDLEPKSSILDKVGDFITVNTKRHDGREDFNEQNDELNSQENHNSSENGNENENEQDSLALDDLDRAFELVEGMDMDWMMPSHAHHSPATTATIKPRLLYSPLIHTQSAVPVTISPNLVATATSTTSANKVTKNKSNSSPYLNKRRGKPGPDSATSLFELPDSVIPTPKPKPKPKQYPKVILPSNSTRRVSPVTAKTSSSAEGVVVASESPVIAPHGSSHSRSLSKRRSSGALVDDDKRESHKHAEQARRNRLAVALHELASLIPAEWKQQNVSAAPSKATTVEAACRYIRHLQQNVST
TTATCTCAATGGGTTTACGTGGGTATAGATTACGCTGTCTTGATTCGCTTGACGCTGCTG: 5430 a.u.
CACCGTCCTATTCGTCACGCTCCAGGCAGAGACATGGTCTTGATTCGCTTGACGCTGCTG: 8140 a.u.
GCTTGGACCATAAAATACGTGACGGAGGACACCATAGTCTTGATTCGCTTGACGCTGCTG: 4180 a.u.
CATACCCAACCTTGCGAGGTGGGTGAAGATATTTGTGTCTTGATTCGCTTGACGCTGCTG: 3900 a.u.
CAAACTCTCCGAGGACACGTGCCGAACAAAGAATGTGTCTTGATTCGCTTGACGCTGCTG: 20200 a.u.

Block 2
Target: Prothrombin, mature alpha-thrombin (F2, Homo sapiens, UniProt P00734)
Method: aptamer microarray, sandwich
Form: DNA with 2'F-ANA
Matrix: in vitro
Concentration: 200 nM
Setting: whole 15-mer aptamer, many near background
Together with: Cy3 exosite-II aptamer, 400 nM
Reading: higher = stronger binding
Quantity: mean fluorescence intensity
Strand: GGTTGGTGTGGTTGG
2'F-ANA at 5 7 8 12 13: 125 a.u.
2'F-ANA at 1 2 3 6 7 9 11 14 15: 57.6 a.u.
2'F-ANA at 2 3 4 6 7 13 14: 227 a.u.
2'F-ANA at 5 6 7 10 11 13 14: 46.2 a.u.
2'F-ANA at 3 4 5 7 8 12 13 14: 107 a.u.
2'F-ANA at 1 3 5 6 7 9 11: 61.7 a.u.
2'F-ANA at 4 5 7 8 13: 49.8 a.u.

Block 3
Target: Histone acetyltransferase KAT6A, winged helix 2, GST fusion (KAT6A, Homo sapiens, UniProt Q92794, residues 85-181)
Method: protein binding microarray
Form: double-stranded DNA, one strand shown
Matrix: in vitro
Concentration: not given
Setting: 8-mer, flanks averaged, mean of 2 arrays, mostly near background
Baseline: not given
Reading: higher = stronger binding
Quantity: E-score
Residues (chain): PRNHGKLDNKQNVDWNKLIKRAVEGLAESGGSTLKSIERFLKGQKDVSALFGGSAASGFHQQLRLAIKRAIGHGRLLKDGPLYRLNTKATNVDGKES
ATTAATAC: -0.0413
ATTCTGTC: -0.118
TCGTTAGA: -0.149
AGCGAAGC: 0.25
CCTACCGC: 0.153

Further values, each from its own experiment
PhoQ, residues 284 288 289 292 302 303 TNSAEL — fold induction (PhoP, residues 12 14 15 18 19 SHWTV (Escherichia coli, UniProt P23836); Sort-seq, item: YFP reporter; E. coli; PhoQ-PhoP variant library, together with: 10 µM Mg2+; baseline: high Mg2+ state, higher = stronger signaling): 2.13

Some of these lines once more (block 2):
2'F-ANA at 1 2 3 6 7 9 11 14 15: 57.6 a.u.
